Measurements of several laboratories.
Numbered parts are unrelated; each lists some results of a single study.

Study 1 — method: protein-binding microarray; molecule type: double-stranded DNA, one strand shown; matrix: in vitro; tested at: 2540 nM top; setting: 60-bp whole probe; added: salmon DNA 0.4 mg/ml; reference: random background probes; direction: higher = stronger binding; quantity: fitted relative affinity
Target: Interferon regulatory factor 3, full length, phosphomimetic (IRF3, Homo sapiens, UniProt Q14653, residues 1-427, S386D/S396D/S398D/S402D/T404D/S405D)
Construct (chain): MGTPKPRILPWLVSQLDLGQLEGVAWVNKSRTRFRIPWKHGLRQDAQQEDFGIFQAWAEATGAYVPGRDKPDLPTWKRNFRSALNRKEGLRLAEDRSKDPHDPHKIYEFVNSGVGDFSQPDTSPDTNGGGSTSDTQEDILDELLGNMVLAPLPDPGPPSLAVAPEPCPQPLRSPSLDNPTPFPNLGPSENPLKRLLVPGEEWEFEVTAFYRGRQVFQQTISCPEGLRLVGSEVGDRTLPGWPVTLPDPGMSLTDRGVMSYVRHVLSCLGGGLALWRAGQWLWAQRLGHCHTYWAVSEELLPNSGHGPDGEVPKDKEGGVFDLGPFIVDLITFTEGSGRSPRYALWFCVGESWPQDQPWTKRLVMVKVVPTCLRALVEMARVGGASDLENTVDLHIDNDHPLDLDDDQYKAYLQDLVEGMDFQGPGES
GCCTAGCACGACGAACTGAGTACCGAGACGTGCTAGGTCTTGATTCGCTTGACGCTGCTG: -0.0857 z-score
GCCTAGCACAGATTTTTATCAAATGTGGGAGTGCTAGTCTTGATTCGCTTGACGCTGCTG: -0.012 z-score
GCCTAGCACGACGGTAGCGGGTTTCGGGACGTGCTAGTCTTGATTCGCTTGACGCTGCTG: 1 z-score
GCCTAGCACTACGAACTGGGGTTTCGAGACGTGCTAGTCTTGATTCGCTTGACGCTGCTG: 0.389 z-score

Study 2 — method: protein-binding microarray; molecule type: double-stranded DNA, one strand shown; matrix: in vitro; tested at: 0.8 µM; setting: whole 60-bp probe, no competitor; direction: higher = stronger binding; quantity: fluorescence intensity; all sequences stand within: … GTCTTGATTCGCTTGACGCTGCTG
Target: Centromere-binding protein 1, full length, N-terminal tag (CBF1, Saccharomyces cerevisiae, UniProt P17106, residues 1-351)
UniProt P17106, sequence (whole entry, looked up): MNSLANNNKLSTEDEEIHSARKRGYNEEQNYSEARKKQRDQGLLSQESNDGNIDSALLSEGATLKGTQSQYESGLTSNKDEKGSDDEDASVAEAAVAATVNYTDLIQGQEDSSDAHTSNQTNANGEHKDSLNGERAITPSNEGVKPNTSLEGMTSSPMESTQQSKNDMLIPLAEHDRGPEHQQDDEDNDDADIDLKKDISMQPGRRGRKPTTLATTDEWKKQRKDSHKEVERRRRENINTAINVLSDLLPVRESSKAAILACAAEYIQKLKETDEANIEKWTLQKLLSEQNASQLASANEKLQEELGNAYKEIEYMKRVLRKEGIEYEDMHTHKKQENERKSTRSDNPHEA
CCTAACTACTATAATGACACGCTATAGCTTCGTACA: 530 a.u.
CTAACGTCAAGATTCTCCGTGACTATGGCTCTTTTC: 544 a.u.
CTACCTTCGAGACTTCTGATGATGACATTTCCATTC: 524 a.u.
CTATTGAGTCATGGGCACGTCACCGCACAACAGTTC: 668 a.u.
CTAATTGCACCCGTGCACGTCACACATAAGCTTTTC: 1050 a.u.
CTACATATGATTCACGTGAAAATTTTTATATTTTTC: 3850 a.u.

Study 3 — method: RNA Bind-n-Seq; molecule type: RNA; matrix: in vitro; tested at: 365 nM; reference: no-protein control; direction: higher = stronger binding; quantity: RBNS enrichment (R)
Target: RNA binding protein fox-1 homolog 2, RRM domain, GST-SBP tag (RBFOX2, Homo sapiens, UniProt O43251-10, residues 100-194)
Setting: natural RNA segment, single round, ends assumed
All sequences stand within: GGGAGUUCUACAGUCCGACGAUC … UGGAAUUCUCGGGUGCCAA
Residues (chain): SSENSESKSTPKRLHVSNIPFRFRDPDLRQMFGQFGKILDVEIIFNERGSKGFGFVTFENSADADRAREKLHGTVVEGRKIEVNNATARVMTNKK
GCAGAGAGUGCCCCAUGCCUUCUUUAAGAAGUCCCUCAUUAAGCCGCAGGAACAAUGGAAAACUAUUUAAGGGAACAUUGCAGAAAUAUUUGAUGACUGUUUCUUGUGGA: 0.624
GUUAGUUCCUCCCUCUUCCCGAUGUUCAUCUUCUAAGUAAGGGACAGCAUGCUACAGGACAGACCUGCUCUGGAAGCCUGUCAUAGUAAGGCUGGCGUGGCACGUUUGGG: 0.853
GUGGUUGGGCGAGUGUCCUUGUUAAUUGAUACCUAAUUGGCCUUGGUUGGGAACAUAGCCAUGAGUGCCCCUCGUGGGUGGGGCGCCAGUCUGUCAUUGACCUCAUUGUG: 0.848
GCAGAGAGAAACCAUGGGAACUCCCUGUGGGGAACACUCAAGAAGGCCAAGCCUCAGCAGGAAAGUGCAGUAGAAGAUACUGUUUUACAGACAAGUCCUGUGUAACCUGC: 0.315
AUUUAUGUCUGCAUAUUCUUCUAGCUGAAUUUUUGAUUUUACUACAUUUGAUAUUUUUCUUUUUAGUUUCCUUGACUAAAGAGGUACAAUAUACUCUGAUCUACCCCUUA: 0.493
GAGCUGAGAGUGGGCCUGGGAAAGGCUGUAGGGAAGGAGUGAAGCUGUCACUGAAAUGAACUUGAUCUUGAUCUGCUUUGAUAUGGGGACAGAAUCCCCGACUGCACUAU: 2.07

Other studies, line by line
PhoQ, residues 284 288 289 292 302 303 TGYLSA  fold induction (PhoP, residues 12 14 15 18 19 AQALL (Escherichia coli, UniProt P23836); Sort-seq, refers to: YFP reporter; E. coli; PhoQ-PhoP variant library, added: 10 µM Mg2+; reference: high Mg2+ state, higher = stronger signaling): 9.28
